{"data": "Assay results pooled from the literature", "note": "Lines come from different studies, so protocols differ. Numbers after ± are the reported error."}
{"Compound": "CC1(C)CCN(Cc2ccc(C(=O)NC[C@]3(O)CCCN(c4cc(NCc5ccccc5)ncn4)C3)c(O)c2)CC1", "cell line": "MOLM-13", "assay": "UPLC-MS/MS, item: mRNA m6A level", "conditions": "16 h", "IC50": "7 µM"}
{"Compound": "C#CCOc1ccc(-c2n(CC(=O)O[C@@H]3C[C@H](C)CC[C@H]3C(C)C)c3ccccc3[n+]2C)cc1N=[N+]=[N-]", "cell line": "MEF", "assay": "cell growth or viability", "IC50": "> 5 µM"}
{"Compound": "CC(C)(CCCC/C=C/CCCCCC(C)(C)C(=O)O)C(=O)O", "cell line": "mouse primary hepatocytes", "assay": "cholesterol synthesis, inhibitor", "conditions": "4 h, with: [1,2-14C]acetate incorporation", "IC50": "1.82 ± 1.89 µM"}
{"Compound": "Cc1ccc(NC(=O)N/N=C2\\CC3(CCN(C)CC3)Oc3ccccc32)cc1", "cell line": "MCF7, HCT-116, PC-3, A549", "assay": "cell growth, MTT", "conditions": "range over cell lines", "IC50": "1.15 to 29.4 µM"}
{"Compound": "O=C(OCc1ccc(F)cc1)N(Cc1cccc(CN2CCCCC2)c1)[c-]1cccc1.[Fe+2].c1cc[cH-]c1", "cell line": "BL2", "assay": "cell growth or viability, MTT", "conditions": "48 h", "IC50": "3.3 µM"}
{"Compound": "N#C/C(=C\\c1cn(-c2ccccc2)nc1-c1ccc(Cl)cc1Cl)c1nc2ccccc2[nH]1", "cell line": "ASPC1", "assay": "cell growth or viability, ATP luminescence", "conditions": "72 h", "IC50": "> 100 µM"}
{"Compound": "CC(=O)O[C@H]1CC[C@]2(C)[C@H]3CC=C4[C@@H]5[C@@H](C)[C@H](C)CC[C@]5(C)CC[C@@]4(C)[C@]3(C)CC[C@H]2C1(C)C", "cell line": "HDFn", "assay": "cell viability, PrestoBlue", "conditions": "96 h", "IC50": "8.84 µg/mL"}
{"Compound": "CCOc1cncc(-c2ccc(NC(=O)C3(c4ccnc(NS(=O)(=O)C5CC5)n4)CCOCC3)nc2)n1", "cell line": "sensitive neoplastic B-cell lines", "assay": "cell proliferation", "conditions": "72 h, range over lines", "IC50": "0.003 to 0.356 µM"}
{"Compound": "C=CC(=O)N1CCC(c2c(-c3ccc(OC)cc3)c3c(N)ncnc3n2C)C1 (centres unmarked)", "cell line": "JMSU-1", "assay": "cell growth or viability, ATP luminescence", "conditions": "96 h", "IC50": "0.96 µM"}
{"Compound": "CC(C)=CCC1=C([O-])C(=O)c2ccccc2C1=O.CC(C)=CCC1=C([O-])C(=O)c2ccccc2C1=O.[Cu+2].c1ccc(-c2ccnc3c2ccc2c(-c4ccccc4)ccnc23)cc1", "cell line": "A2780R cisplatin-resistant", "assay": "cell viability, MTT", "conditions": "24 h", "IC50": "0.6 ± 0.1 µM"}
{"Compound": "c1ccc(-c2cn(-c3ccc(-c4cc(-c5ccccn5)nc(-c5ccccn5)c4)cc3)nn2)nc1", "cell line": "NHDF normal human fibroblasts", "assay": "cytotoxicity, MTS", "conditions": "72 h", "IC50": "> 25 µM"}
{"Compound": "CSCC[C@H](NC(=O)[C@H](Cc1ccc(OP(=O)(O)O)cc1)NC(=O)CNC(=O)CNC(=O)[C@H](CC(=O)O)NC(=O)[C@H](CO)NC(=O)[C@H](CCC(=O)O)NC(=O)CN)C(=O)N[C@@H](CC(=O)O)C(=O)N[C@@H](CCSC)C(=O)N[C@@H](CO)C(=O)N[C@@H](CCCCN)C(=O)N[C@@H](CC(=O)O)C(=O)N[C@@H](CCC(=O)O)C(=O)N[C@@H](CO)C(=O)N[C@@H](CCCCNC(=O)CNC(=O)[C@H](CCCCN)NC(=O)[C@H](CCCNC(=N)N)NC(=O)[C@H](Cc1ccccc1)NC(=O)[C@H](CCCNC(=N)N)NC(=O)[C@H](CCCNC(=N)N)NC(=O)[C@H](CCCNC(=N)N)NC(=O)[C@H](CO)NC(=O)[C@H](Cc1ccc(O)cc1)NC(=O)[C@H](CO)NC(=O)[C@H](CC(C)C)NC(=O)[C@H](CCCNC(=N)N)NC(=O)[C@@H](N)CCCNC(=N)N)C(N)=O", "cell line": "HPASMC", "assay": "PDGF-induced ERK phosphorylation, inhibitor, Western blot, item: phospho-ERK1/2", "conditions": "30 min preincubation, serum-free medium, with: PDGF 1 ng/mL, 10 min", "IC50": "24.4 µM"}
{"Compound": "CCN1CCC2(CC1)C/C(=N\\NC(=O)Nc1ccc(C)cc1)c1ccccc1O2", "cell line": "MCF7, HCT-116, PC-3, A549", "assay": "cell growth, MTT", "conditions": "range over cell lines", "IC50": "5.47 to 39 µM"}
{"Compound": "C=C(C)C(O)C(O)CC(C)C1CCC23CC12CCC1C2(C)CCC(O)C(C)(C)C2CC(OC(C)=O)C13C (centres unmarked)", "cell line": "SCM-1", "assay": "cytotoxicity, MTT", "IC50": "> 10 µM"}
{"Compound": "CC(C)=CCOc1ccc(-c2coc3cc4c(c(O)c3c2=O)C=CC(C)(C)O4)cc1", "cell line": "KKU100", "assay": "cell growth or viability, MTT", "conditions": "24 h", "IC50": "> 100 µM"}
{"Compound": "COc1ccc(NC(=O)c2ccc(NC(=O)CN3C(=O)S/C(=C\\c4ccccc4OC)C3=O)cc2)cc1", "cell line": "HT-29, A549, HCT-116", "assay": "cell growth, MTT", "conditions": "range over cell lines", "IC50": "9.17 to 47.2 µM"}
{"Compound": "C=CC(=O)Nc1cc(Nc2nccc(-c3c(-c4ccc(C(F)(F)F)cc4)n(C)c4ccccc34)n2)c(OC)cc1N(C)CCN(C)C", "cell line": "NCI-H1975", "assay": "cell growth or viability, MTT", "conditions": "72 h", "IC50": "0.0969 µM"}
{"Compound": "Cc1c(-c2cccc(C3=NCCN3)c2)oc(-c2cccc(C3=NCCN3)c2)c1C", "cell line": "RCC4", "assay": "cell growth or viability, SRB", "IC50": "4.9 µM"}
{"Compound": "CC(=O)O[C@@H]1C[C@H]2C(C)(C)[C@H](O)CC[C@]2(C)[C@H]2CC[C@]34C[C@]3(CC[C@H]4[C@@H](C)C[C@@H](O)[C@H](O)C(C)(C)O)[C@@]21C", "cell line": "SCM-1", "assay": "cytotoxicity, MTT", "IC50": "20 ± 4.9 µM"}
{"Compound": "COC(=O)[C@@H](Cc1cn(Cc2ccc(Cl)cc2)nn1)NC(=O)OCC1c2ccccc2-c2ccccc21", "cell line": "ASPC1", "assay": "cell growth or viability, MTS", "conditions": "72 h", "IC50": "> 100 µM"}
{"Compound": "O=[N+]([O-])c1ccc(C=[N+]2N=C(Nc3ccccc3)[S][Pd-]2([Cl])[Cl])s1", "cell line": "HEL human lung fibroblasts", "assay": "cell proliferation", "IC50": "14.6 µM"}
{"Compound": "Cc1nn(-c2ccc(S(=O)(=O)N[C@H](CO)CC(C)C)cc2)c2nn3nnnc3nc12", "cell line": "human Lymphocyte", "assay": "cell growth or viability, MTT", "conditions": "72 h", "IC50": "1.11 µM"}
{"Compound": "COc1cc(/C=C/C(=O)/C=C(O)/C=C/c2ccc(OCC(=O)N3CCOCCOCCOCCOCCOCC3)c(OC)c2)ccc1OCC(=O)N1CCOCCOCCOCCOCCOCC1", "cell line": "U-251", "assay": "cell growth or viability, SRB", "IC50": "5.4 µM"}
{"Compound": "O=[N+]([O-])c1ccc(C=[N+]2N=C(Nc3ccccc3)[S][Pt-]2([Cl])[Cl])s1", "cell line": "HEL human lung fibroblasts", "assay": "cell proliferation", "IC50": "3.1 µM"}
{"Compound": "CC(C)NC(=O)[C@H](CCc1ccccc1)NC(=O)[C@H](CC(=O)NCC(C)(C)C)NC(=O)CCc1ccccc1", "cell line": "WSUDLCL2", "assay": "proteasome β5 activity, inhibitor, Proteasome-Glo β5", "conditions": "1 h", "IC50": "0.19 ± 0.076 µM"}
{"Compound": "Cc1ccc(NC(=O)c2c(C)oc3ccc(O)c(CN4CCCCCC4)c23)cc1", "cell line": "LP-1", "assay": "cell growth or viability, MTS", "conditions": "72 h", "IC50": "8.3 µM"}
{"Compound": "NCCNC(=O)c1ccc2[nH]c(/C(=N/Nc3ccc(F)cc3)c3ccc(O)cc3)nc2c1", "cell line": "SNU-1 (KRAS G12D)", "assay": "cell viability, CellTiter-Glo", "conditions": "72 h", "IC50": "75.7 ± 3.4 µM"}
{"Compound": "COc1c(O)cc2oc3cc(O)c(CC=C(C)C)c(O)c3c(=O)c2c1CC=C(C)C", "cell line": "BEAS-2B", "assay": "cell growth or viability", "IC50": "15.8 µM"}
{"Compound": "CC1=C2[O][Ru-]([Cl])[O+]=C2C=CN1CCCN1C=CC2=[O+][Ru-]([Cl])[O]C2=C1C.Cc1ccc(C(C)C)cc1.Cc1ccc(C(C)C)cc1", "cell line": "KYSE70-oxo oxoplatin-resistant", "assay": "crystal violet", "conditions": "96 h", "IC50": "> 20 µM"}
{"Compound": "COc1cc(N(C)CCN(C)C)c(NC(=O)/C=C/c2ccc(C(F)(F)F)cc2)cc1Nc1nccc(-c2cn(C)c3ccccc23)n1", "cell line": "NCI-H1975", "assay": "cell growth or viability, MTT", "conditions": "72 h", "IC50": "0.716 µM"}
{"Compound": "Cc1ccc(NS(=O)(=O)c2cccc(/C=C/C(=O)NO)c2)cc1", "cell line": "MOPC-315", "assay": "cell growth", "conditions": "24 h", "IC50": "0.159 ± 0.046 µM"}
{"Compound": "Cl.[Cl][Ru-4]123([n+]4ccccc4-c4cccc([n+]41)-c1cccc[n+]12)[n+]1ccc(-c2ccccc2)c2ccc4c(-c5ccccc5)cc[n+]3c4c21", "cell line": "HEL 299", "assay": "cell growth or viability, resazurin", "conditions": "72 h", "IC50": "28.2 µM"}
{"Compound": "Nc1cnn2ccc(-c3ccc4c(c3)CN([C@H]3CCC(=O)NC3=O)C4=O)nc12", "cell line": "MOLM-13", "assay": "cell growth, CellTiter luminescence", "conditions": "72 h", "IC50": "> 0.1 µM"}
{"Compound": "COc1ccc2cc([C@H](C)C(=O)[O][Pt-2]34([O]C(=O)[C@@H](C)c5ccc6cc(OC)ccc6c5)([NH2+][C@@H]5CCCC[C@H]5[NH2+]3)[O]C(=O)C(=O)[O]4)ccc2c1", "cell line": "CT26", "assay": "cell growth, MTT", "conditions": "48 h", "IC50": "8.2 ± 0.6 µM"}
{"Compound": "CC(C)c1cccc(C(C)C)c1-n1c(Cl)c(Cl)n(-c2c(C(C)C)cccc2C(C)C)c1=[Se].[Cl][Ag]", "cell line": "H157 lung carcinoma cells", "assay": "cell viability, MTT", "conditions": "72 h", "IC50": "1.7 ± 0.1 µM"}
{"Compound": "COCCOCCOCCOc1ccc(/C=C/c2c(I)c(C)c3n2[B-](F)(F)[N+]2=C(C)C(I)=C(C)C2=C3c2cc(OC)cc(OC)c2)cc1", "cell line": "HEp-2", "assay": "phototoxicity, CellTiter-Blue", "conditions": "with: light 1.5 J/cm^2", "IC50": "3.8 µM"}
{"Compound": "O=C1CC[C@H](N2Cc3cc(-c4cnn5ccc(Nc6ccc7c(c6)OCO7)nc45)ccc3C2=O)C(=O)N1", "cell line": "MOLM-13", "assay": "cell growth, CellTiter luminescence", "conditions": "72 h", "IC50": "> 0.1 µM"}
{"Compound": "Cc1cc(/C=C/C#N)cc(C)c1Oc1cc(Nc2ccc(C#N)cn2)nc2ccncc12", "cell line": "S102", "conditions": "48 h", "IC50": "> 120 µM"}
{"Compound": "COc1ccc(CN2C[C@H](O)[C@H](O)[C@@H]2CO)cc1", "cell line": "K562-Tax", "assay": "cell growth or viability, MTS", "conditions": "72 h", "IC50": "110 µM"}
{"Compound": "COc1ccc(NS(=O)(=O)c2cccc(/C=C/C(=O)NO)c2)cc1", "cell line": "MOPC-315", "assay": "cell growth", "conditions": "24 h", "IC50": "0.09 ± 0.016 µM"}
{"Compound": "CC(C)c1cccc(C(C)C)c1N1CCN(c2c(C(C)C)cccc2C(C)C)C1=[Se].[Cl][Ag]", "cell line": "H157 lung carcinoma cells", "assay": "cell viability, MTT", "conditions": "72 h", "IC50": "1.4 ± 0.4 µM"}
{"Compound": "COCCOCCOCCOc1ccc(/C=C/C2=[N+]3C(=C(c4cc(OC)cc(OC)c4)c4c(C)c(I)c(/C=C/c5ccc(OCCOCCOCCOC)cc5)n4[B-]3(F)F)C(C)=C2I)cc1", "cell line": "HEp-2", "assay": "cell growth or viability, resazurin", "conditions": "24 h, dark", "IC50": "> 400 µM"}
{"Compound": "COc1ccc(/N=N/C(=S)N2CCN(C)CC2)cc1", "cell line": "HT-1080", "assay": "cell growth or viability, resazurin", "conditions": "48 h", "IC50": "> 50 µM"}
{"Compound": "N=C(N/N=C/c1ncc[nH]1)N/N=C/c1ncc[nH]1", "cell line": "hTERT-HPNE", "assay": "cell growth, crystal violet", "conditions": "72 h", "IC50": "258 ± 33.5 µM"}
